# Published values collected from several papers.
# Each numbered part is a random draw from the data of one study; scales do not carry over between parts.

# Set 1
# Target: PABPC1L2, full length, GST fusion (mouse, UniProt A0ABA7IW68)
# Method: RNAcompete
# Molecule type: RNA
# Medium: in vitro
# Tested at: 20 nM
# Setting: 7-mer, probes averaged, single round
# Baseline: mean of 7-mers
# Direction: higher = stronger binding
# Residues (chain): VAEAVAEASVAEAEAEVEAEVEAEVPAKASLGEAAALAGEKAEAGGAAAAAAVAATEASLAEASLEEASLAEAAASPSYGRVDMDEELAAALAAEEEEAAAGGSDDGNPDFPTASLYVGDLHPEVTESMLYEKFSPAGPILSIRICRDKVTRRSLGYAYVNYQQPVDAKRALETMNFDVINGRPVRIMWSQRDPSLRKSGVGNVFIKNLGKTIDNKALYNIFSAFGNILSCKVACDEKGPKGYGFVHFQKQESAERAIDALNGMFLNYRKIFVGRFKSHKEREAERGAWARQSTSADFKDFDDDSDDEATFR
Sequence,7-mer Z-score
GCUAGGG,0.298
ACUCUCA,-0.34
AUCGGAC,0.111
AGGACUC,-0.128
UGGGAAG,0.0225
UACGCGA,-0.108
CCCUAUC,-0.387
CCAUUCC,-0.291
GGGAGUC,-0.0935
CUCCUUU,-0.267
UAUUUCG,-0.267
UAAGUCG,-0.142
UCAUAAC,-0.175
GAGCAGU,-0.146
CAAACCC,-0.255
UAUUUUU,-0.364
GUCGGCG,-0.179
AUGAGCG,0.0134
UGAGUGC,-0.184
GCGAUUC,-0.246
CCCGGGC,-0.344
UGAUCCG,-0.277

# Set 2
# Target: Histone acetyltransferase KAT6A, winged helix 1, GST fusion (KAT6A, Homo sapiens, UniProt Q92794, residues 1-85)
# Method: protein binding microarray
# Molecule type: double-stranded DNA, one strand shown
# Medium: in vitro
# Tested at: not given
# Setting: 8-mer, flanks averaged, mean of 2 arrays, mostly near background
# Baseline: not given
# Direction: higher = stronger binding
# Construct (chain): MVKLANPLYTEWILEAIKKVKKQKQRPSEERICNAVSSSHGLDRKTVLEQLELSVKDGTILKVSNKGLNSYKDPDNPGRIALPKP
Sequence,E-score
GATGGACC,-0.102
GATAAGGA,-0.0654
AGATCTAA,-0.127
CATTAGAC,-0.00136
TGTCCGAA,0.0331
GTCGGGCA,0.109
ATGGCGCA,0.168
GTGTCAAA,-0.242
GCGGTCCC,0.273
CTGCAGAA,-0.113
ACGACACC,0.0519
CGGTGGAC,0.038
AACCGTGA,0.0966
ACCGGCGA,0.26
ATAGCCCC,0.0329
ATTTCAAG,-0.182
GACGGGGA,0.327
ACTGAAGC,0.0238
CAGCGATG,-0.0179
CAAATAAG,-0.14
ACAGCCTG,-0.103
CCAAAACG,-0.198
GTCACGAC,-0.156
CAACGGTG,0.169
AGCGTGAT,-0.027

# Set 3
# Target: Centromere-binding protein 1, full length, His-tagged (CBF1, Saccharomyces cerevisiae, UniProt P17106, residues 1-351)
# Chain of UniProt P17106 (whole entry, looked up): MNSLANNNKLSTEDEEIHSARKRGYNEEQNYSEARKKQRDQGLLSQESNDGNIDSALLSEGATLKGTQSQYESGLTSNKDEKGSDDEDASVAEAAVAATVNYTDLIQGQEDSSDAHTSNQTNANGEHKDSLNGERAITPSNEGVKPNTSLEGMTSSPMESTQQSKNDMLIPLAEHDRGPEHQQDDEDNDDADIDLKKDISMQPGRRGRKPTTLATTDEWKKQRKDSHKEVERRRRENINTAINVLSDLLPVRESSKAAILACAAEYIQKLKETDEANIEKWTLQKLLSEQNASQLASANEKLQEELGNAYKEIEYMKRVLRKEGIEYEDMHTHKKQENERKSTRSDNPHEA
# Method: competition protein-binding microarray
# Molecule type: double-stranded DNA, one strand shown
# Medium: in vitro
# Tested at: 2 µM
# Setting: whole 60-bp probe, lowest competitor level
# Together with: Pho4 competitor, 0.05 µM
# Direction: higher = stronger binding
# Shared flanks, not repeated: … GTCTTGATTCGCTTGACGCTGCTG
Sequence,fluorescence intensity [a.u.]
AACAAGAGGTTTCGTCACAATTGCTAGGCGGTGCCA,58.2
TGCGCAACAACTTGTCACGTGTTTTTATGTCTAGAA,6330
AAATTACTAAGTTGGCAAGTGGGTGACGCCGTATGA,60
ATAAGAGTACTGTTCCACGTGTTTCGATTGCCTTTA,755
CTGTGGACGAATCGGCACGCTTATTATTTAGGAGTG,108
TTGGAGTGGAACCCTCCCGTGTGGAAAACATATTTT,59.8
CTAACGAAGGTTTGTAAGGTGGGTGACAAGCCAAGT,72.4
AAAGCGGTAATTTTTCACGTGTAATCAAATATCTAT,1400
CATACCCAACCTTTTCACGTGGTCTAAGATATTTGT,2110
CTAACGAAGGTTTGTTCAGTGGGTGACAAGCCAAGT,69.9
GTTGCTTGCTAATTGCATGATCAAGTTGAGCCGATG,82.5
GGAAGAAATGTCCATCACGTGATGGAGAACCAATGA,10800
GTCTTGTCTCATTTTCACGTGCATTTCCCCACTTCA,866
AAATTACTAAGTTGTGCGGTGGGTGACGCCGTATGA,64.8
AATAATGCTGTAAGCCTCGTGACGGCATTTCATTAG,487
CTAACGAAGGTTTGACAAGTGGGTGACAAGCCAAGT,62
AAAGTAACCCACTTTAACGTGACGGAACCTGAGCTG,144
CGTCCTAGTGATTGGCAGGTGGGTGCCATGAGGAAG,77.9
TGCTACGCGTAGTGCAGCGTGACGGCGGGCTAAAAA,101

# Set 4
# Target: RNA binding protein fox-1 homolog 2, RRM domain, GST-SBP tag (RBFOX2, Homo sapiens, UniProt O43251-10, residues 100-194)
# Method: RNA Bind-n-Seq
# Molecule type: RNA
# Medium: in vitro
# Tested at: 365 nM
# Setting: natural RNA segment, single round, ends assumed
# Baseline: no-protein control
# Direction: higher = stronger binding
# Shared flanks, not repeated: GGGAGUUCUACAGUCCGACGAUC … UGGAAUUCUCGGGUGCCAA
# Target sequence (chain): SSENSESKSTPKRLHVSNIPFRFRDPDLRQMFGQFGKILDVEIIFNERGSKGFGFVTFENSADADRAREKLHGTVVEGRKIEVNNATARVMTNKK
Sequence,RBNS enrichment (R)
CUGAGAUGGAUGACUGGCGUGAACAUGUCUCUGAAGUUGUACUUGAGAAGACAAGAAGAAUAAUGUCAACAGAACAACAUCACUUUGGGCCAAGCAUUUGAACACUUUUU,0.426
GUCUAUAAAAAUGGAGUCACUGGGAUAUCAAUGAAGAAAUCAAACUGUUUAAUUUUAAUUCAGUUGUUAAUGUGUCUUAGUGUGUGCAUUAUUUUCUUACUAUUAACCCA,0.622
AGGGGCAGGGAACCGCCUGCCUGUGCACUCACGCCACCCCCCAGCCCACAAAGAGCCCAUCUGAGAGAAGGACGUGGUGGAGCCAGGACGGGAAAGCGUCCUGUCGGCUG,0.465
AGACGUGAGUUAUCCAAGUAUUUAUUUUGUGUAGUGUGUAAGAAUGCUAAAUAAAAUGUUAUACAAGUCAAGUUUUUGCGUGUUAUUUUUCCUGAGAAGUAAUUUUUAGG,0.439
CUACACAUACAUGCACAUAGACACACACAUGAACACACUGAAGAUAUUUCCUUCAGGUGUGUGUAAAAUAUGCUGCUUGGAUUGAAAUUCAAAUGGGAUUGAUUAGUCAA,0.333
UAAAUGCUGUUGACUGUGCUAUUAACUGCUGCCGUCAGUAAACUCCAAAGAUCUUUUUGUUUUGGCUUUAGUAUCAUAUGUGCUUUUUCUGUAUCCUGAGCGCUCUAUAU,1.72
UUGCUUUUGUUUUUUUAAUUUUUAUUUUUGGAUGGGAUAUUCACAAAUAUCUGUAUUAUACUCUAAGCUAUUACAAUGGUACUUAAAAUAAUGUAAAUUUGAAGUCAUUG,0.649
CAUUUGCUUGUUGUACAGUUUCUUGUAGUUUAUUUUUUAAUAGAUUUGAAUAAAACCUAAAUAGCGCAUCCCUUUGGUUCUGGUUUAAUGUACCAACAAGGCUUCCCUGA,1.42

# Some of these lines once more (set 1):
Sequence,7-mer Z-score
CCCUAUC,-0.387
CCAUUCC,-0.291
AGGACUC,-0.128
CUCCUUU,-0.267
